Measurements pooled from the literature.
Every numbered part comes from another study and shows a few of its results, in no order. Changes are numbered by the printed parent chain.

Set 1
Target: RNA binding protein fox-1 homolog 2, RRM domain, GST-SBP tag (RBFOX2, Homo sapiens, UniProt O43251-10, residues 100-194)
Technique: RNA Bind-n-Seq
Form: RNA
Matrix: in vitro
Tested at: 365 nM
Setting: natural RNA segment, single round, ends assumed
Baseline: no-protein control
Direction: higher = stronger binding
Target sequence (chain): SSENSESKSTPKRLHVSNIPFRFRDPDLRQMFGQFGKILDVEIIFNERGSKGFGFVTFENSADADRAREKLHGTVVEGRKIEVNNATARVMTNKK
Oligonucleotide	RBNS enrichment (R)
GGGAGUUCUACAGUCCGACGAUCUUUAUAAAACUCUAAAAGUAUUCUGUUUUGAUAUGUCUUUUUGUUUCUAUUCAUUUUCAGUUAUAUGAUUGAUUUACUUAUGCCAAGAUUCUGUCACUGUCAGUUAUUUAUGGAAUUCUCGGGUGCCAA	0.732
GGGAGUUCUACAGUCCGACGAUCACUUUGAGAGAAUUUCCAAUAUAAUAUUAGACAUAAUGAUAAUUUUUUCCAUACUCAGAAUGAAAAACUGGAUAUUACGUUUUUGUUUUGGGGUUUUUUUGUACAAAUUUUGGAAUUCUCGGGUGCCAA	1.58
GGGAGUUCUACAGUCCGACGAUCGAGCAGUGAAUGUCACUUUACAUGGCUGUUUCUGUCACAUGUUCAUAUCUGAACAUUUUUGGUUAUAACUUUUUUAUUGCCUUUGGCUGUUGAUUAGUACAAGUGCAAUUUGGAAUUCUCGGGUGCCAA	0.337
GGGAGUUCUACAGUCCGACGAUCUUGACCCCAAUGCCUCUGUUUACCAGCCCCUGAAGAAAUGAGGCCAGCUGUGUGUUGUGCCCAAAAAUUUGGUUACCGGAAGGCAUUGCAAAGGAGCGUCUCUGGCAGUCUGGAAUUCUCGGGUGCCAA	0.447
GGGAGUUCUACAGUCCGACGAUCAUGCUAUUGGGAAACCUCUUCUCCGUGACACAGAAUGUUCUGGGUGGGAGCCGCCCUUCUUCAUCUUAGAGAACCAAGUGCCUCCUGUCUGAAAGGUGAGGGUGGCCUGAUGGAAUUCUCGGGUGCCAA	0.219
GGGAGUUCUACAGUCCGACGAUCUGUGAAGAGCAGGUCUGCUUUACCUUUCUUGCCAGGUUCAAACUGUGUUUUUAAAUGGAAGGGAUUUGUGGCAUCCACUUGCUGAGCGGUGAACAGAGCGAGACGCAGUUUGGAAUUCUCGGGUGCCAA	0.395
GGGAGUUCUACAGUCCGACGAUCGGGCUUGUCCUAGAGGCUCCAGCUCUGGCACAGUGGUUCCUGGCUGCUGCCAUGUCUCAGAUGAGGAGGGAGAGAAGGAGGCCGCCAGACUCGAGAGGUGGGAGGAACUCUGGAAUUCUCGGGUGCCAA	0.507
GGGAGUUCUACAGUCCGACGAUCUGGCCUUUCAUGACCCUGGCUUACUGUGUAAAUGCUGUGCCCUUGGGUACUGGAUAGGAACACUGAGAAAGCAAAGCCAAUAGCCGUGAGGACGAGGAAGUUUCUGCCACUGGAAUUCUCGGGUGCCAA	0.261
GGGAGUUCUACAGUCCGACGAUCACAGAGGCACAAGAUGAUGCAGGGCUAUAAAGCCCUCCCUGGAGCUUUCAGGAGGGCCAGUUCCAAUCCUGAUCACAGCCUGCAUGGAUUUCCACUUGCCUGGUGCUUGCUGGAAUUCUCGGGUGCCAA	0.809
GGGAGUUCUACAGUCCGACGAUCAGGCUACAGCCUAAUUAUUUUCCUUUGUCGCCCCUCCUUUUUCUGAUUGAUGGUUGUAUUAUUUUCUCUGAAUCCUCUUCACUGGCCAAAGGUUGGCAGAUAGAGGCUGUUGGAAUUCUCGGGUGCCAA	0.725
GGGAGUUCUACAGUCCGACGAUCUCUGGUCUAUUGUGUAAAUAUUUAUUUAGACUAUUUUAAUAAUACAUAUUAUUUACCCCACUGUAACAUCAUGUAAACUAAGUAUGUUUUUAAACAAUUUUUAAGACUUGUGGAAUUCUCGGGUGCCAA	0.564
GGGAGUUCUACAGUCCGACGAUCGAGCACUGCCCCGCCGCCAAAGUCUGCAGAAUGUGAGAUGAGGUUCUCAAGGUCACAGGCCCCAGUCCCAGCCUGGGGGCUGGCAGAGGCCCCCAUAUACUCUGCUACAGUGGAAUUCUCGGGUGCCAA	0.389

Set 2
Target: Prothrombin, mature alpha-thrombin (F2, Homo sapiens, UniProt P00734)
Technique: aptamer microarray, sandwich
Form: DNA with 2'F-ANA
Matrix: in vitro
Tested at: 200 nM
Setting: whole 15-mer aptamer, many near background
Together with: Cy3 exosite-II aptamer, 400 nM
Direction: higher = stronger binding
Oligonucleotide: GGTTGGTGTGGTTGG
Modification	mean fluorescence intensity
2'F-ANA at 4 7 9 10 11 12 14 15	63.9 a.u.
2'F-ANA at 1 2 3 5 6 8 10 11 12 13 14 15	88.1 a.u.
2'F-ANA at 1 2 4 5 7 10 12 13 15	49.7 a.u.
2'F-ANA at 1 2 3 4 5 8 9 10 12 13	46.5 a.u.
2'F-ANA at 2 3 4 7 9 10 11 13 15	225 a.u.
2'F-ANA at 1 4 5 7 11 13 14 15	43.6 a.u.
2'F-ANA at 2 6 7 11 12 14 15	144 a.u.
2'F-ANA at 1 2 3 4 5 6 8 10 12 15	57.4 a.u.
2'F-ANA at 1 5 7 8 9 10 12	49.1 a.u.
2'F-ANA at 1 2 3 4 9 15	177 a.u.
2'F-ANA at 1 4 12	307 a.u.
2'F-ANA at 1 3 5 8 14 15	45.5 a.u.
2'F-ANA at 2 4 9 10 13 14 15	59.1 a.u.
2'F-ANA at 1 3 4 5 6 7 9 11 12 13 15	87.1 a.u.
2'F-ANA at 3 7 8 12 14	834 a.u.
2'F-ANA at 2 3 6 7 8 12 13 15	971 a.u.
2'F-ANA at 2 5 7 9 11 12	142 a.u.
2'F-ANA at 1 2 4 5 8 9 10 11 12 14	47.5 a.u.
2'F-ANA at 2 3 5 6 7 8 11 12 15	177 a.u.
2'F-ANA at 3 4 5 7 8 9 10 13 14	48.5 a.u.
2'F-ANA at 1 2 3 10 11 13 14 15	149 a.u.
2'F-ANA at 2 3 5 8 10 11 13 14 15	48.1 a.u.
2'F-ANA at 2 5 7 9 13 15	54.5 a.u.
2'F-ANA at 2 3 4 5 6 7 9 11	85 a.u.
2'F-ANA at 2 3 4 5 7 12 14	56.7 a.u.

Set 3
Target: Sal-like protein 4, full length isoform B (SALL4, Homo sapiens, UniProt Q9UJQ4-2, residues 1-616)
Technique: universal PBM
Form: double-stranded DNA, one strand shown
Matrix: in vitro
Tested at: not given
Setting: 8-mer, flanks averaged, mean of replicates
Direction: higher = stronger binding
Construct (chain): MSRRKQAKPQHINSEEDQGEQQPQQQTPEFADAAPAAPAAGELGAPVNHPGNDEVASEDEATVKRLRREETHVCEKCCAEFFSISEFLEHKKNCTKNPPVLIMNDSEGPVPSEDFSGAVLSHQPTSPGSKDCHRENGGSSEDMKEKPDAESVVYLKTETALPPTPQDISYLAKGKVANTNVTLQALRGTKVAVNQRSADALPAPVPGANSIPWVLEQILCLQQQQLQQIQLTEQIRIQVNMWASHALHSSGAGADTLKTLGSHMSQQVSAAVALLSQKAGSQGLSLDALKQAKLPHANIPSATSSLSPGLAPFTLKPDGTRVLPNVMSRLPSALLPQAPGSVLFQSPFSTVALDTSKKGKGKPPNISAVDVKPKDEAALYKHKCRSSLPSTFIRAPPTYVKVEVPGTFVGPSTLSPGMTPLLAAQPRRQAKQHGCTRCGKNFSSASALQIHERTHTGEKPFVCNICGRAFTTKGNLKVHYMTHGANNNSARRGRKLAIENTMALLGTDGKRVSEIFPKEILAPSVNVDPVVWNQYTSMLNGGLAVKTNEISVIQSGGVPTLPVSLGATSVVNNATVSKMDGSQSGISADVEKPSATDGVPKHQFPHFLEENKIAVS
Oligonucleotide	E-score
AATCGTCC	-0.0529
ACACTTGC	0.136
ACAGCTAG	-0.15
CATGCACA	0.0932
GATGCACA	-0.0258
AAATATCT	0.308
AGTGGAGA	-0.0146
ACGCTGCG	-0.254
CTATCCGA	-0.0078
AAGTCATA	0.3
GAATGACA	0.136
ACCCCAAG	-0.219
ACATTCGC	-0.0709
GCAACTGA	-0.155
TAAGGGTA	0.028
ATCTATAA	0.387
CTGGGGAC	-0.345
ACGCACGA	0.0691
GGGGACCA	-0.307
CCCCTGGA	-0.354
TAAGTCCA	0.00966
AGCGCACG	-0.266

Set 4
Target: Interferon regulatory factor 5, full length, phosphomimetic (IRF5, Homo sapiens, UniProt Q13568-2, residues 1-514, K96S/S451D/S453D/S456D/S462D)
Technique: protein-binding microarray
Form: double-stranded DNA, one strand shown
Matrix: in vitro
Tested at: 250 nM
Setting: 60-bp whole probe
Together with: salmon DNA 0.4 mg/ml
Baseline: random background probes
Direction: higher = stronger binding
All sequences stand within: GCCTAGCAC … GTCTTGATTCGCTTGACGCTGCTG
Oligonucleotide	log fluorescence
GAAGGTCTCGGTTTCGGGACGTGCTAG	3.3 z-score
TCACTTTCCACTTTCTTACTGTGCTAG	3.02 z-score
CTCTACATGGGTATAGAGTAGTGCTAG	-0.0214 z-score
GACGAACTGAGTCGCGAGACGTGCTAG	-0.341 z-score
GACGGTATCGGTTTCGTGACGTGCTAG	6.95 z-score
TCAGCTTTGCAGATAAAACTGTGCTAG	0.268 z-score
TTAGGTATCCTTCACCTTTAGTGCTAG	0.135 z-score
TTAGGTTTCGACACTGGATTAGTGCTA	5.94 z-score
TTAGATTTCGGGCATCGATTAGTGCTA	3.9 z-score
TCATCTTCAGCACTCGGACTGTGCTAG	0.307 z-score
GACGAACCGGGGACTGGAGACGTGCTA	-0.347 z-score
ATCTTCATGAAATTTTAGTAAGTGCTA	0.91 z-score
TCAAATATTCATTTTATACTGTGCTAG	1.09 z-score
TCACCTTTACTTTCTTTACTGTGCTAG	2.58 z-score
AGATGGTCCTCTCTCTATTCGTGCTAG	-0.301 z-score
GTTTTTTTTTAATTGAAATCGTGCTAG	0.963 z-score
GACGGTTTCGACAATCGGGACGTGCTA	5.21 z-score
GACGGTATCGACTTGCGGGACGTGCTA	2.18 z-score
TTAGGTTTCGGGTTTCGTTTAGTGCTA	8.99 z-score
TCACCTCTCCTCTCAGGAACTGTGCTA	0.0128 z-score
GACGGACCGCTACTGCTGACGTGCTAG	-0.78 z-score
TTTGGTATCCTTATCCTTTAGTGCTAG	0.414 z-score

Set 5
Target: CCNB1, cyclin fold, Cln2 fusion (human)
Technique: yeast growth competition, sequencing
Matrix: yeast
Setting: weak parent motif
Baseline: not given
Direction: higher = stronger binding
Parent: SCAPER docking peptide (human); SNARRSLNFGGST
Substitution	normalised enrichment score
S6E	-0.458
S6Q	0.447
L7E	0.132
T13L	0.991
N8A	0.0827
R5L	0.195
T13M	0.62
T13E	0.731
G11P	0.00749
S1N	0.451
F9V	-0.0151
S12C	0.131
S12F	0.00736
F9Q	0.37
N8T	0.504
S12H	0.627
N2M	-0.406
G10T	0.298
A3Y	0.335
S1A	0.956
T13A	0.422
R4H	0.21
S1R	0.0587
N2P	0.177
G11M	0.305
